Measurements of several laboratories.
Lines come from different studies, so protocols differ. Values joined by “and” are separate records of one study, mostly repeats; a detail may differ. ± marks the error that the study gave.
ache: Acetylcholinesterase (ache, Electrophorus electricus, UniProt O42275)
UniProt O42275, sequence (whole entry, looked up): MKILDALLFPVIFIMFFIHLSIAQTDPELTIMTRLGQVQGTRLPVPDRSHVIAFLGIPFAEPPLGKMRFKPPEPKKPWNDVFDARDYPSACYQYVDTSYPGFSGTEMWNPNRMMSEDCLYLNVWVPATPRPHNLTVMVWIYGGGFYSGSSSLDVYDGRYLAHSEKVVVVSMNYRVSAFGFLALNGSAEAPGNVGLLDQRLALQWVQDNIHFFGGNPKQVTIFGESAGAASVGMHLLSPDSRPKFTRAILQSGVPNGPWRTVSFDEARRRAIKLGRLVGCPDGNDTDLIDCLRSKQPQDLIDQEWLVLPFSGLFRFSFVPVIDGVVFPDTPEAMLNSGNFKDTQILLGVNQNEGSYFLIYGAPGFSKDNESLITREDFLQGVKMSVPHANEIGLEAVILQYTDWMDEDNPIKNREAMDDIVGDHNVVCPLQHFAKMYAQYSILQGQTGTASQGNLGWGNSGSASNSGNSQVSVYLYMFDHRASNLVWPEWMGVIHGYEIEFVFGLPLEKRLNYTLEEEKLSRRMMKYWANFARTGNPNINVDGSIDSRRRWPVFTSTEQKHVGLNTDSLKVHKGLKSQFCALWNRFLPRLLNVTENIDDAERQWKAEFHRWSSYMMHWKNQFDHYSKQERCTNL
dcp2 with Dcp1: mRNA decapping complex subunit 2, with Dcp1 (dcp2, Schizosaccharomyces pombe, UniProt O13828)
UniProt O13828, sequence (whole entry, looked up): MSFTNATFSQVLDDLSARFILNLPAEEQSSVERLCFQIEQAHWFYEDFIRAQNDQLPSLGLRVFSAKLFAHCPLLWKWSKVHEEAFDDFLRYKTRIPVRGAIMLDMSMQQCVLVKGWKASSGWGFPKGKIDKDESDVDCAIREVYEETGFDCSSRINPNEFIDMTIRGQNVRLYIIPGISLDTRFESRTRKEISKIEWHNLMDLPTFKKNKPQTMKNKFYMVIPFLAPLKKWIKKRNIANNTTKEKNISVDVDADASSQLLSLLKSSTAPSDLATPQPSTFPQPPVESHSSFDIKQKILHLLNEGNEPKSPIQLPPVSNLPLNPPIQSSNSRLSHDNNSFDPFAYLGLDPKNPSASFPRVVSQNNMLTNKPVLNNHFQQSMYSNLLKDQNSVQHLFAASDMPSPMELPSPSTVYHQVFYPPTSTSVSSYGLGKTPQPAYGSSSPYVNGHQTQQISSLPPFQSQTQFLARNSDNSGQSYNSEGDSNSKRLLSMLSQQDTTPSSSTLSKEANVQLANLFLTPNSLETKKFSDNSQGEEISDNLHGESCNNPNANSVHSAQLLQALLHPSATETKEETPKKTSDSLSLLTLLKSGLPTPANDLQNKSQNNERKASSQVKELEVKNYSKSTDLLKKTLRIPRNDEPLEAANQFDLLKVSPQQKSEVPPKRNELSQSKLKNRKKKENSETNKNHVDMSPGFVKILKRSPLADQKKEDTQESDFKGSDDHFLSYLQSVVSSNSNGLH
MTNR1A: Melatonin receptor type 1A (MTNR1A, Homo sapiens, UniProt P48039)
UniProt P48039, sequence (whole entry, looked up): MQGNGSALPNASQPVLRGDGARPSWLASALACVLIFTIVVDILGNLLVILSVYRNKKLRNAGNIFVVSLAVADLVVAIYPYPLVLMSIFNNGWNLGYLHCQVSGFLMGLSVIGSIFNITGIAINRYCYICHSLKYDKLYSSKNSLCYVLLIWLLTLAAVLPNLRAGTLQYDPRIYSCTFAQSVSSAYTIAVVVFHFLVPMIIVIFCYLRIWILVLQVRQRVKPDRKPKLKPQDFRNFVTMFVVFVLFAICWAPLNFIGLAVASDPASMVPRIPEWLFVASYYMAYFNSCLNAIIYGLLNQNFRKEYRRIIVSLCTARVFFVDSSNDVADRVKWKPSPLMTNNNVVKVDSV
NPY1R: Neuropeptide Y receptor type 1 (NPY1R, Homo sapiens, UniProt P25929)
UniProt P25929, sequence (whole entry, looked up): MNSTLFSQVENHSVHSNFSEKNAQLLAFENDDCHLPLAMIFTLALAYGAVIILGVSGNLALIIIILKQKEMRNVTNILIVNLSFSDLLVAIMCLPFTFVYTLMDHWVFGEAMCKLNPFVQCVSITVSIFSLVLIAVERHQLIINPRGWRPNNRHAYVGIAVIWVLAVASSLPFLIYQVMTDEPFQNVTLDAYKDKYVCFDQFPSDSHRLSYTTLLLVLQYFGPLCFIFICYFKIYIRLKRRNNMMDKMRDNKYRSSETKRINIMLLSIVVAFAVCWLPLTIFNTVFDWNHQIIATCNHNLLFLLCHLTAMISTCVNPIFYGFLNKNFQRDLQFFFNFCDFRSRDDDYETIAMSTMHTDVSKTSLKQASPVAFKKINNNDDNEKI
UniProt Q7RTN6, sequence (whole entry, looked up): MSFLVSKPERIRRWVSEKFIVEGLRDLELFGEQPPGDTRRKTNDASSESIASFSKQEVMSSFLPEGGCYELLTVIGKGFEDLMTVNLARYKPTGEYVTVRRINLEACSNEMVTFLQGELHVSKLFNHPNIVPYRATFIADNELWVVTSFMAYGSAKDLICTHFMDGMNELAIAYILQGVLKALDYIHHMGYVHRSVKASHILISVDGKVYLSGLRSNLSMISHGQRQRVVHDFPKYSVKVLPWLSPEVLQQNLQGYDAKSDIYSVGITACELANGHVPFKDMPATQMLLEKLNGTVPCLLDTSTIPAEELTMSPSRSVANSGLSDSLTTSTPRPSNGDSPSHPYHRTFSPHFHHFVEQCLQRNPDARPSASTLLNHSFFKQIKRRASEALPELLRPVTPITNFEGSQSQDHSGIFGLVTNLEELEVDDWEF
UniProt P34975, sequence (whole entry, looked up): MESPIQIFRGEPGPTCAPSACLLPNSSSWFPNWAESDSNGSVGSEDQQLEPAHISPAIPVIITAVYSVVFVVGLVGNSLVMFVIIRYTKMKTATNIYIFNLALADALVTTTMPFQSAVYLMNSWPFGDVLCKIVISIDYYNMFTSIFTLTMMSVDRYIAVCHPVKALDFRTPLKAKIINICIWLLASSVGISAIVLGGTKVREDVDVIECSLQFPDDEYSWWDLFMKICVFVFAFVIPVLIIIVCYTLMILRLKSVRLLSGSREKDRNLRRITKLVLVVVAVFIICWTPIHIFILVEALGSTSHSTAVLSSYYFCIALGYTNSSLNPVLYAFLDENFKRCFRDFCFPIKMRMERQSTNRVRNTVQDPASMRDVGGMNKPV
UniProt O14757, sequence (whole entry, looked up): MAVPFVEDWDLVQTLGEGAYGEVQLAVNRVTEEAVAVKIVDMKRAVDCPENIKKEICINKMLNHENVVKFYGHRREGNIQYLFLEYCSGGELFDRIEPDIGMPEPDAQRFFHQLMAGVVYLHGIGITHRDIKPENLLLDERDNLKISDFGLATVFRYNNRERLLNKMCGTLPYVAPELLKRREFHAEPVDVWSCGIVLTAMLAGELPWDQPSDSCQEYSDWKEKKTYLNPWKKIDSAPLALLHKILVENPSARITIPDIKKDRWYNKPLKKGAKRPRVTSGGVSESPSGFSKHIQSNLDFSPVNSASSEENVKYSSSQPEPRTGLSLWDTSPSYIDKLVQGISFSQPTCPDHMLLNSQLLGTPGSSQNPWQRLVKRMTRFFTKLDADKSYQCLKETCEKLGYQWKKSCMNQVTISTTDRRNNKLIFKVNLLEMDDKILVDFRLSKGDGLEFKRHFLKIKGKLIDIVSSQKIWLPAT
UniProt O43148, sequence (whole entry, looked up): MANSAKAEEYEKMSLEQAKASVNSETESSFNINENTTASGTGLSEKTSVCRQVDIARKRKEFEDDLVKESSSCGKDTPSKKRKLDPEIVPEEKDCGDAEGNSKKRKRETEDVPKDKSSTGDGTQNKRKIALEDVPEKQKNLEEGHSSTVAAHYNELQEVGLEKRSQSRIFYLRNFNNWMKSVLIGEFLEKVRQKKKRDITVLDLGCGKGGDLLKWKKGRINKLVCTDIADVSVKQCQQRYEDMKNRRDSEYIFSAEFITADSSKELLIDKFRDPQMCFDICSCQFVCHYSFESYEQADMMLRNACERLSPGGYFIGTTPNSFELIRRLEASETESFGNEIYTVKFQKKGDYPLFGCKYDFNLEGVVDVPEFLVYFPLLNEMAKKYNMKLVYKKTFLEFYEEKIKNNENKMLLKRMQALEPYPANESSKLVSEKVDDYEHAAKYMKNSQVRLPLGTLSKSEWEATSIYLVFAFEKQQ
UniProt Q9UBS5, sequence (whole entry, looked up): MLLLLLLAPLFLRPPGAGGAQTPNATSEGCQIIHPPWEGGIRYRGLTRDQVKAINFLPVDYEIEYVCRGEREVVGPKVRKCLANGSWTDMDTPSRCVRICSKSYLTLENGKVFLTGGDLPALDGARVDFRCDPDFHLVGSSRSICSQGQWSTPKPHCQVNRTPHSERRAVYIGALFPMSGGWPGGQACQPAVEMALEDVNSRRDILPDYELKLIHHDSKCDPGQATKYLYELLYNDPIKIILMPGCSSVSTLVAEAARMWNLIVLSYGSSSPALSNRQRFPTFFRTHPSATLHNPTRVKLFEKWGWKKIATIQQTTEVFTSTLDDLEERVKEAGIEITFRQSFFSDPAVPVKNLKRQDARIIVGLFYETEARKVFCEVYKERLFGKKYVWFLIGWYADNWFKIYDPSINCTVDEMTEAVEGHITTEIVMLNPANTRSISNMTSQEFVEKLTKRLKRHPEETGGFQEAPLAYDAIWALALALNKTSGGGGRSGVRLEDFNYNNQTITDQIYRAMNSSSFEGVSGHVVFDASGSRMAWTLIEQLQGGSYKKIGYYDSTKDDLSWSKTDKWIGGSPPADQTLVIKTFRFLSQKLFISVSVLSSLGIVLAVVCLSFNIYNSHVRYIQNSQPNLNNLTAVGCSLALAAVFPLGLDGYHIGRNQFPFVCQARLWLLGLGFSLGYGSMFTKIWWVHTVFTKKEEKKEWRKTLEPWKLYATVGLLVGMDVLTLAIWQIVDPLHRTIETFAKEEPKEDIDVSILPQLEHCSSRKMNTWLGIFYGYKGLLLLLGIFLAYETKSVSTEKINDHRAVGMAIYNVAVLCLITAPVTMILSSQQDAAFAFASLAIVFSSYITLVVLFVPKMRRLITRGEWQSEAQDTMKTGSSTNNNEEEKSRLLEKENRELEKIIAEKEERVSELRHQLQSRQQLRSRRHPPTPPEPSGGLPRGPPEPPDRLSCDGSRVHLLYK

SMILES = c1ccc(Cn2c(-c3ccc(OC[C@H](C4CCNCC4)n4c(-c5ccccc5)nc5ccccc54)cc3)nc3ccccc32)cc1; target or system = Retinal rod rhodopsin-sensitive cGMP 3',5'-cyclic phosphodiesterase subunit delta (PDE6D, Homo sapiens, UniProt O43924); assay = enzyme activity, inhibitor; setting = 5 µM; measurement = inhibition; result = 62%
SMILES = Fc1cccc(CN2CCNCC2)c1; target or system = ache; assay = enzyme activity, inhibitor, Ellman; setting = 20 µM; measurement = inhibition; result = 24.5%
SMILES = OB(O)c1ccccc1-c1ccc2ccccc2c1; target or system = Beta-lactamase (ampC, Escherichia coli K-12, UniProt P00811); assay = enzyme activity, inhibitor, CENTA hydrolysis absorbance; setting = 10 µM; measurement = inhibition; result = < 10%
SMILES = Cc1cc(C(=O)Nc2nc3cccc(C)c3n2[C@H]2CCCCN(C(=O)/C=C/CN(C)C)C2)ccn1; target or system = Trypanosoma brucei; test system = STIB795, mouse acute HAT model; setting = oral, 7.5 mg/kg once daily for 4 days, day 28; scale = reference: mice; measurement = survival; result = 0%
SMILES = C[C@H](NCc1ccc(-c2ccc(C(F)(F)F)cc2)cc1)C(N)=O; target or system = MAP/microtubule affinity-regulating kinase 3 (MARK3, Homo sapiens, UniProt P27448); assay = cell-free assay, competition with immobilised ligand; setting = 1 µM; measurement = inhibition; result = 2%
SMILES = C[n+]1cn([C@@H]2O[C@H](COP(=O)([O-])OP(=O)(O)O)[C@@H](O)[C@H]2O)c2nc(N)nc(O)c21; target or system = dcp2 with Dcp1; setting = 200 µM, 0.5 h; measurement = inhibition; result = 13.1 ± 6%
SMILES = N[C@H](C(=O)N1CCCC1)C1CCN(c2nccc3c(-c4ncc(Cl)cc4Cl)cccc23)CC1; target or system = Serine/threonine-protein kinase Chk1 (CHEK1, Homo sapiens, UniProt O14757); assay = kinase activity, inhibitor; setting = 10 µM, added: ATP 1 mM; measurement = inhibition; result = 0.3%
SMILES = CC(=O)NC[C@@H]1[C@@H](O)C[C@H]2[C@H](O)C[C@@H](CO)N12; target or system = human placental β-N-acetylglucosaminidase; setting = 0.171 µM, run 2, added: p-nitrophenyl GlcNAc; measurement = inhibition; result = 70.4%
SMILES = COc1ccccc1-c1n[nH]c2nc(N[C@H]3CC[C@H](NS(=O)(=O)CC(C)C)CC3)ncc12; assay = bead binding, competition bead pull-down, item: LINJ.26.0770; test system = Leishmania donovani extract; setting = 10 µM; scale = reference: vehicle; measurement = relative abundance; result = 0.73
SMILES = O=C(NC1CCN(c2ncnc3[nH]cnc23)CC1)c1cccc(NS(=O)(=O)c2ccc(C(F)(F)F)cc2)c1; target or system = mRNA cap guanine-N(7) methyltransferase (RNMT, Homo sapiens, UniProt O43148); assay = enzyme activity, inhibitor; setting = concentration not given; measurement = inhibition; result = no inhibition
SMILES = CS(C)(=O)=Nc1ccc(-c2ccc(-c3nc4cc(O[C@@H]5CO[C@H]6[C@@H]5OC[C@H]6O)[nH]c4cc3F)cc2)cc1; target or system = Kappa-type opioid receptor (Oprk1, Rattus norvegicus, UniProt P34975); assay = calcium signal, antagonist; setting = 10 µM; measurement = inhibition; result = 19%
SMILES = CN(C)[C@H]1C[C@@]23CC[C@@]4(O2)C(=CC[C@]2(C)[C@@H](c5ccc6ccncc6c5)CC[C@H]24)C=C3[C@@H](O)[C@@H]1O; target or system = STE20-related kinase adapter protein alpha (STRADA, Homo sapiens, UniProt Q7RTN6); assay = ATP probe labelling, inhibitor, KiNativ profiling; setting = 1 µM; measurement = inhibition; result = -1.9%
SMILES = O=C1NC(=O)c2c1c1cc(F)c[n+]3c1c1c2c2cc(O)ccc2[n]1[Ru-4]312([N]=C=S)[S+]3CC[S+]1CC[S+]2CC3 (centres unmarked); target or system = Serine/threonine-protein kinase PAK 5 (PAK5, Homo sapiens, UniProt Q9P286); assay = enzyme activity; setting = 100 nM, human enzyme, added: 10 µM ATP; scale = reference: untreated; measurement = remaining activity; result = 31%
SMILES = Cc1ccc(OCCN(C)C)cc1C(=O)N[C@H](C)c1cc(-c2cnn(CC(=O)N(C)C)c2)nc2ccccc12; target or system = African green monkey cells; setting = 3.906 µM; measurement = viability; result = 96.2%
SMILES = CC(C)(C)C(=O)OCOP(=O)(OCOC(=O)C(C)(C)C)C1CCCN(O)C1=O (centres unmarked); target or system = COLO 205; measurement = log LC50; result = -4.39 log M
SMILES = Cc1sc2c(c1C)C(c1ccc(Cl)cc1)=NC(CC(=O)OC(C)(C)C)c1nnc(C)n1-2 (centres unmarked); target or system = MTNR1A; assay = ligand displacement, radioligand; setting = 1 µM; measurement = remaining binding; result = 70.9%
SMILES = COc1ccc(F)cc1S(=O)(=O)Nc1cnc2c(c1)C(=O)NCCO2; target or system = NPY1R; assay = ligand displacement, radioligand; setting = 10 µM; measurement = inhibition; result = 3%
SMILES = CN(/N=C/c1ccccc1C(=O)O)c1nc(-c2ccccc2Cl)cs1; target or system = Protein-tyrosine kinase 6 (PTK6, Homo sapiens, UniProt Q13882); assay = enzyme activity, inhibitor; setting = 1 µM; measurement = inhibition; result = -5.88%
SMILES = NC1CCCCC1; target or system = ache; assay = enzyme activity, inhibitor, Ellman; setting = 20 µM; measurement = inhibition; result = 34.6%
SMILES = CCc1nnc(-c2c(OC)cc(-c3cnc4cc(-c5cnn(C)c5)ccn34)cc2OC)o1; target or system = Glucocorticoid receptor (NR3C1, Homo sapiens, UniProt P04150); assay = agonist radioligand, radioligand binding; setting = 10 µM, SafetyScreen44 GR; measurement = inhibition; result = -3%
SMILES = C=CCNc1nc2cc(-c3ccc(OCCCNC)nc3)sc2c(=O)n1C; target or system = ache; assay = enzyme activity, inhibitor, Ellman; setting = 5 µM; measurement = inhibition; result = 66.5%
SMILES = CC(C)[C@H]1NC(=O)C[C@H]2/C=C/CCSSC[C@@H](NC1=O)C(=O)N[C@H](Cc1cccc3ccccc13)C(=O)NCC(=O)O2; target or system = Dual specificity tyrosine-phosphorylation-regulated kinase 3 (DYRK3, Homo sapiens, UniProt O43781); assay = enzyme activity, inhibitor; setting = 10 µM; measurement = inhibition; result = -6.6%
SMILES = C[n+]1cn([C@@H]2O[C@H](COP(=O)(O)CP(=O)([O-])OP(=O)(O)O)[C@@H](O)[C@H]2O)c2nc(N)nc(O)c21; target or system = dcp2 with Dcp1; setting = 200 µM, 0.5 h; measurement = inhibition; result = 25.9%
SMILES = O=C(CN1CN(c2ccccc2)C2(CCN(C(=O)c3cnc4[nH]ncc4c3)CC2)C1=O)NCC(F)(F)F; target or system = Serine/threonine-protein kinase SIK1 (SIK1, Homo sapiens, UniProt P57059); assay = inhibitor; setting = concentration not given; measurement = inhibition; result = < 50%
SMILES = CCOC(=O)[C@](CC)(CCCSCCOCCOCCNC(=O)c1ccc(-c2c3ccc(=N)c(S(=O)(=O)O)c-3oc3c(S(=O)(=O)O)c(N)ccc23)c(C(=O)O)c1)NC(=O)c1ccc(C2CC2)c(Cc2ccc(F)cc2)n1; target or system = CHRNA1/CHRNG/CHRND (Homo sapiens, UniProt P02708+P07510+Q07001); assay = specific binding, antagonist radioligand binding; setting = 10 µM; measurement = inhibition; result = 14%
SMILES = CCCCCCCCCCCCCCCCCC(=O)NC[C@H]1CC[C@H](C(=O)N[C@@H](CCC(=O)NCCCOCCOCCOCCCNC(=O)COCC(=O)N[C@@H](Cc2ccc(O)cc2)C(=O)NC(C)(Cc2ccccc2)C(=O)N[C@@H](CC(C)C)C(=O)N[C@@H](CCCC)C(=O)N[C@@H](CCCNC(=N)N)C(=O)N2CCC[C@H]2C(=O)N[C@@H](CCCNC(=N)NC)C(=O)N[C@@H](CC(N)=O)C(N)=O)C(=O)O)CC1 (some centres unmarked); target or system = NPY1R; assay = antagonist, DiscoverX GPCR panel; setting = 1 µM; measurement = inhibition; result = 64%
SMILES = C[n+]1cn([C@@H]2O[C@H](COP(=O)([O-])CP(=O)(O)O)[C@@H](O)[C@H]2O)c2nc(N)nc(O)c21; target or system = dcp2 with Dcp1; setting = 200 µM, 0.5 h; measurement = inhibition; result = 21.5 ± 9.85%
SMILES = O=C1NC2(CC2)COc2ncc(F)cc2[C@H]2COCCN2c2ccn3ncc1c3n2; test system = Sprague-Dawley rat, female, serum; setting = oral, 2.5 mg/kg/day, end of treatment, 4-week subacute toxicity; measurement = serum total protein; result = 60.9 ± 4.4 g/L
SMILES = COc1ccccc1-c1n[nH]c2nc(NC3CCN(C(=O)Cc4ccc(F)cc4F)CC3)ncc12; assay = bead binding, competition bead pull-down, item: LMJF.21.1760; test system = Leishmania donovani extract; setting = 10 µM; scale = reference: vehicle; measurement = relative abundance; result = 1.23
SMILES = C=CC(=O)Nc1cc(-c2nn(C3CCC(N4CCN(C(C)=O)CC4)CC3)c3ncnc(N)c23)ccc1Oc1ccccc1 (centres unmarked); target or system = Serine/threonine-protein kinase ULK3 (ULK3, Homo sapiens, UniProt Q6PHR2); assay = inhibitor, KiNativ profiling; test system = biochemical; setting = 2 µM; measurement = inhibition; result = -0.2%
SMILES = CN[C@@H]1[C@H](O)[C@H](NC)[C@H]2O[C@]3(O)[C@H](O[C@@H]2[C@H]1O)O[C@H](C)C[C@H]3NC(=O)Cc1cc(Cl)ccn1; target or system = Gamma-aminobutyric acid type B receptor subunit 1 (GABBR1, Homo sapiens, UniProt Q9UBS5); setting = 10 µM; measurement = inhibition; result = 1%
SMILES = O=C(O)c1ccccc1/C=N/Nc1nc(-c2ccccc2Cl)cs1; target or system = SRM kinase; assay = kinase activity, inhibitor; setting = 1 µM; measurement = inhibition; result = 11.2% and 12.6%
SMILES = CC[C@H](C)[C@H](NC(=O)[C@H](CO)NC(=O)[C@H](Cc1ccc(O)cc1)NC(=O)[C@H](Cc1ccc(O)cc1)NC(=O)[C@H](CC(N)=O)NC(=O)CNC(=O)[C@H](CO)NC(=O)[C@H](Cc1ccc(O)cc1)NC(=O)[C@H](CO)NC(=O)[C@H](CO)NC(=O)[C@H](CC(N)=O)NC(=O)COCCOCCNC(=O)CN1CCN(CC(=O)O)CCN(CC(=O)O)CCN(CC(=O)O)CC1)C(=O)N[C@@H](CC(C)C)C(N)=O [copper-64 labelled]; assay = dynamic PET; test system = mouse, tamoxifen-induced PDAC, tumor; setting = intravenous, 0.1 µg/mouse, 2.5 min; measurement = tumour uptake; result = 16.2 %ID/mL
SMILES = Cc1ccc(N2CCN(C)[C@H](C)C2)cc1C(=O)N[C@H](C)c1cc(-c2cnn(C)c2)nc2ccccc12; target or system = Vero E6; setting = 250 µM; measurement = viability; result = 0.471% and 1.26%
SMILES = Cc1nc2cccc(OCC(C)(C)C(=O)NC(C)C)c2c(N)c1C(=O)[O-].[Na+]; target or system = Salmonella typhimurium; test system = TA1537; setting = 0.32 mg per plate, without S9, plate incorporation; measurement = revertant colonies per plate; result = 11 ± 3
SMILES = CN[C@@H]1[C@H](O)[C@H](NC)[C@H]2O[C@]3(O)[C@H](O[C@@H]2[C@H]1O)O[C@H](C)C[C@H]3NC(=O)Cc1ccc(Cl)cn1; target or system = MTNR1A; assay = ligand displacement, radioligand; setting = 10 µM; measurement = inhibition; result = 9%
SMILES = O=S(=O)(F)CCc1cn(-c2ccc(F)cc2)nn1; target or system = ache; assay = Ellman; setting = 20 µM; measurement = inhibition; result = 36.1 ± 3.3%
SMILES = CCC1CC(c2ccc(C(=O)O)cc2C)=NN1c1ccc(C#N)c(Cl)c1 (centres unmarked); target or system = Histone-lysine N-methyltransferase EHMT1 (EHMT1, Homo sapiens, UniProt Q9H9B1); assay = enzyme activity, inhibitor; setting = 10 µM; measurement = inhibition; result = 3%

A few entries again:
SMILES = O=C(NC1CCN(c2ncnc3[nH]cnc23)CC1)c1cccc(NS(=O)(=O)c2ccc(C(F)(F)F)cc2)c1; target or system = mRNA cap guanine-N(7) methyltransferase (RNMT, Homo sapiens, UniProt O43148); assay = enzyme activity, inhibitor; setting = concentration not given; measurement = inhibition; result = no inhibition
SMILES = CS(C)(=O)=Nc1ccc(-c2ccc(-c3nc4cc(O[C@@H]5CO[C@H]6[C@@H]5OC[C@H]6O)[nH]c4cc3F)cc2)cc1; target or system = Kappa-type opioid receptor (Oprk1, Rattus norvegicus, UniProt P34975); assay = calcium signal, antagonist; setting = 10 µM; measurement = inhibition; result = 19%
SMILES = CN(C)[C@H]1C[C@@]23CC[C@@]4(O2)C(=CC[C@]2(C)[C@@H](c5ccc6ccncc6c5)CC[C@H]24)C=C3[C@@H](O)[C@@H]1O; target or system = STE20-related kinase adapter protein alpha (STRADA, Homo sapiens, UniProt Q7RTN6); assay = ATP probe labelling, inhibitor, KiNativ profiling; setting = 1 µM; measurement = inhibition; result = -1.9%
